Experimental data pooled from the literature.
Protocols differ between the studies behind these lines. Values joined by “and” are separate records of one study, mostly repeats; a detail may differ. ± gives the spread as reported. ≈ marks a conversion by molar mass, not a printed value.
Sequence of UniProt Q9Y233 (whole entry, looked up): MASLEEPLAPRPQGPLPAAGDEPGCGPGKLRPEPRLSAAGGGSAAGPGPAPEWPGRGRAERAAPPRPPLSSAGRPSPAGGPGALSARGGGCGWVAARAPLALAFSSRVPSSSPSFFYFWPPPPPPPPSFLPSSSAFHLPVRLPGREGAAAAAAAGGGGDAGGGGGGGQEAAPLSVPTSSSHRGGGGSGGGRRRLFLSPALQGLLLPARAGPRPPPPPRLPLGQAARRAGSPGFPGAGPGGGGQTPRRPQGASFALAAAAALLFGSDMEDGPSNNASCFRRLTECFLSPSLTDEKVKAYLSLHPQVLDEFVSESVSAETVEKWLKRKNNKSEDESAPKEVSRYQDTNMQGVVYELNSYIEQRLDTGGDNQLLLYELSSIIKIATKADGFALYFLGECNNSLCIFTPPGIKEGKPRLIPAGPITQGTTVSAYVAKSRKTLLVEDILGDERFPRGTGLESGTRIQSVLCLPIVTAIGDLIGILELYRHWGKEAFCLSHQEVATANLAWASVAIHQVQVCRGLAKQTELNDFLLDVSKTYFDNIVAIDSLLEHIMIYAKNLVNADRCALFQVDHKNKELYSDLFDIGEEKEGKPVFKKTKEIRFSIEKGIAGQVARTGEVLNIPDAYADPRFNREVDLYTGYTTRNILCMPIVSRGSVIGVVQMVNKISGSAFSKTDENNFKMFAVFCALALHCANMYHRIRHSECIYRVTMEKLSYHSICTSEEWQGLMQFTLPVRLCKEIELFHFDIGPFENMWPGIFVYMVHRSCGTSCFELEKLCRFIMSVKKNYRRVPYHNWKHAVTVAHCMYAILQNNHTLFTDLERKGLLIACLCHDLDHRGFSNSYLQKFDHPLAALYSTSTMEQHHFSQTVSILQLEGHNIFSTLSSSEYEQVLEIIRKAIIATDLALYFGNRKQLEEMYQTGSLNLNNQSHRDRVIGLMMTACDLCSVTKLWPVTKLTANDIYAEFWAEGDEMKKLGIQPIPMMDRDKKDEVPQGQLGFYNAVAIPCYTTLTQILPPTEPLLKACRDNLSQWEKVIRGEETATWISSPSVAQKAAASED
Sequence of UniProt Q13011 (whole entry, looked up): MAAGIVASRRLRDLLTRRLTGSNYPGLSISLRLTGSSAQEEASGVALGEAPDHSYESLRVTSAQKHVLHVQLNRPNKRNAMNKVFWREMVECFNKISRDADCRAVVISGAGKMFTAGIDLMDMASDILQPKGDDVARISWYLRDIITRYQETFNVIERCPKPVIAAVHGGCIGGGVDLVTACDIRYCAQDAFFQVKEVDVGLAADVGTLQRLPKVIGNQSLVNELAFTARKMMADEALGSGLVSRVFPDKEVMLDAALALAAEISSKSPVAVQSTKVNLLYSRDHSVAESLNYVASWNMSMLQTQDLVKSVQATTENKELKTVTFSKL

Cc1nc(Nc2ccc(CC(=O)O)cc2)nc(Nc2ccc(F)c(C(F)(F)F)c2)c1C  Sirius Red staining (mice, chronic ethanol plus binge, liver; intraperitoneal, 0.3 mg/kg daily, ethanol diet 4 weeks, dosed last two; reference: vehicle): decreased
C[C@H]1CN(c2n[nH]c3nc(N[C@H]4CC[C@H](NS(=O)(=O)CCC(F)(F)F)CC4)ncc23)CCO1  remaining binding (Delta(3,5)-Delta(2,4)-dienoyl-CoA isomerase, mitochondrial (Homo sapiens, UniProt Q13011); Kinobeads competition, measured: ECH1; 0.8 µM, unit not given; reference: vehicle): 1.1
C[C@]1(O)CC[C@@]2(C)[C@@H](CC[C@@H]3[C@@H]2CC[C@]2(C)[C@@H]([N+](=O)[O-])CC[C@@H]32)C1  seizure protection (male NIH Swiss mice; i.p., dose not given, 15 min before test, 6 Hz seizure model): inactive
OC(Cn1cncn1)(Cn1cncn1)c1ccc(F)cc1F  immobility time (forced swim test; CD-1 mice; dose not given, without ketamine; reference: vehicle): no effect
CC[C@H](C)[C@H](NC(=O)[C@H](CCCNC(=N)N)NC(=O)[C@H](CO)NC(=O)[C@H](Cc1ccc(O)cc1)NC(=O)[C@@H](NC(=O)[C@@H](NC(=O)[C@H](C)NC(=O)CNC(=O)[C@H](CCCCN)NC(=O)[C@@H](N)CCCCN)C(C)C)[C@@H](C)O)C(=O)N[C@@H](CO)C(=O)NCC(=O)N[C@@H](CCC(N)=O)C(=O)N[C@@H](Cc1ccc(O)cc1)C(=O)N[C@@H](CCCCN)C(=O)O  MIC (broth microdilution; 168, Mueller-Hinton broth; 16 to 18 h, 37 °C): > 96 µM
C=CCc1ccccc1OCC(O)CNC(C)C (stereo not shown)  IC50 (Plasmodium falciparum; W2): 2000 nM
CCCCC1(CCCC)CN(c2ccccc2)c2cc(SC)c(OCC(=O)N[C@@H](C(=O)NCC(=O)O)c3ccccc3)cc2S(=O)(=O)C1  serum LDL-C (measured: LDL cholesterol; human, serum; 15 mg once daily, day 9): 79.5 mg/dL
CN1CCN(S(=O)(=O)c2cc([N+](=O)[O-])ccc2N(CCOS(C)(=O)=O)CCOS(C)(=O)=O)CC1  EFS ratio (T/C) (NSG mice, sample CH PDX; intraperitoneal, 25 mg/kg weekly x3; reference: treated over vehicle): > 54.8
Cn1cnc(CCN)c1  log2 fold change (binding, MIDAS equilibrium dialysis LC-MS; A2AR-BRIL thermostabilized; concentration not given; reference: no-protein control): -0.305
C[C@]1(CO)Cc2ncn(-c3ccc(C#N)c(Cl)c3)c2C(=O)O1  urinary sodium excretion Ae(0-24h) (human; 80 mg single dose): 297 mmol
Cc1cn(-c2cc(NC(=O)c3ccc(C)c(Nc4nccc(-c5cccnc5)n4)c3)cc(C(F)(F)F)c2)cn1  ADAS-Cog change difference (human; dose not given, between 12 and 6 months, unit not given; reference: placebo): 0.67
CCCCC/C=C\C/C=C\C/C=C\Cc1ccccc1CCCC(=O)N[C@H](C)CO  paw withdrawal threshold (mechanical hypersensitivity, electronic von Frey; mouse, CFA inflammatory pain model, contralateral non-inflamed paw; ip, 10 mg/kg; reference: vehicle): no effect
CCN(CC)CCOCCOC(=O)C1(c2ccccc2)CCCC1  IC50 (Plasmodium falciparum; W2): 631 nM
N#CC(=Cc1ccccc1)c1cccnc1  β-elimination rate constant (pH 7.4): 0.011 min⁻¹
Nc1ncnc2c1ncn2[C@@H]1O[C@H](COP(=O)(O)OS(=O)(=O)O)[C@@H](O)[C@H]1O  log2 fold change (binding, MIDAS equilibrium dialysis LC-MS; A2AR-BRIL thermostabilized; concentration not given; reference: no-protein control): -0.155
N=C(N)NCCC[C@H](NC(=O)CCCCCNC(=O)[C@H](CCCNC(=N)N)NC(=O)[C@H](CCCNC(=N)N)NC(=O)CCCCCNC(=O)[C@H](CCCNC(=N)N)NC(=O)[C@H](CCCNC(=N)N)NC(=O)CCCCCNC(=O)[C@H](CCCNC(=N)N)NC(=O)[C@H](CCCNC(=N)N)NC(=O)CCCCCNC(=O)[C@@H](N)CCCNC(=N)N)C(=O)NCCCCCC(=O)NCCC(=O)O  MIC (broth microdilution; ATCC 33592 resistant strain, Mueller-Hinton broth): 192 µM (≈ 366 µg/mL)
COc1cc(Nc2ncc(F)c(Nc3ccc4c(n3)NC(=O)C(C)(C)O4)n2)cc(OC)c1OC  IC50 (PDE10A (Homo sapiens, UniProt Q9Y233)): > 10000 nM
CC(C)C[C@H](NC(=O)[C@H](CCC1CCCCC1)NC(=O)[C@@H]1CCCN1C(=O)c1ccc(F)cc1)C(=O)NC(C)(C)C(=O)N[C@@H](CC(C)C)C(=O)N[C@@H](CC(C)C)C(=O)NC(C)(C)C(=O)NC(C)(C)C(=O)NCCC(=O)NC1(CN(C)C)CCC1  leakage (HPTS release from GUVs; PC/PG 7:3 GUVs; 1 µM, complete leakage fraction): > 50% and ~50%
Clc1cc2c(cc1Cl)Oc1cc(Cl)c(Cl)cc1O2  LTC4 level (female Sprague-Dawley rat, liver; dose not given; reference: vehicle): 1.3 fold
NC(=O)c1cccc(-c2cc(OC(=O)NC3CCCCC3)ccc2O)c1  paw oedema and hyperalgesia (mouse carrageenan inflammation; oral, 0.1 mg/kg): no effect
CC[C@H](C)[C@@H]1NC(=O)[C@@H]2CCCN2C(=O)[C@H](CC(C)C)NC(=O)[C@H](CC(C)C)NC(=O)CNC(=O)[C@@H](NC(=O)[C@@H](NC(=O)[C@H](CC(=O)O)NC(=O)CNC(=O)[C@@H](NC(=O)[C@H](C)NC(=O)CNC(=O)[C@H](CCCCN)NC(=O)[C@H](CC(C)C)NC(=O)[C@H](CC(C)C)NC(=O)[C@H](CCCCN)NC(=O)CNC(=O)[C@@H](NC(=O)[C@@H](N)CC(C)C)C(C)C)C(C)C)C(C)C)CSSC[C@@H](C(=O)O)NC1=O  log2 fold change (RNA-seq, measured: mt-Nd3 mRNA; mouse traumatic brain injury, frontal cortex and hippocampus; dose not given; reference: TBI plus compound vs TBI): -2.9
COc1ncc(-c2nc3c(n2C(C)C)[C@H](c2ccc(Cl)cc2)N(c2cc(Cl)cn(C)c2=O)C3=O)c(OC)n1  best overall response (antileukemic activity, measured: treatment failure, resistant disease; human, acute myeloid leukaemia; 250 mg, high-dose, RDE): 33.3%
C[C@H]1O[C@@H](O[C@H]2CC[C@@]3(C)[C@@H](CC[C@]4(C)[C@@H]3C=C[C@]35OC[C@@]6(CCC(C)(C)C[C@H]63)[C@@H](O)C[C@]54C)[C@]2(C)CO)[C@H](O)[C@@H](O[C@@H]2O[C@H](CO)[C@@H](O)[C@H](O)[C@H]2O)[C@H]1O  body weight change (mouse, no ethanol, hepatic SIRT1 knockdown; dose not given, high dose, during treatment): 1.6 g and 1.4 g and 0.7 g and 1.9 g and 2.1 g
COc1cc(Br)cc(Br)c1Oc1cc(Br)cc(Br)c1O  Vmax/Km (glucuronidation; human liver microsomes): 211 ± 99.4 µL/min/mg
CO[C@H]1C[C@@H]2CC[C@@H](C)[C@@](O)(O2)C(=O)C(=O)N2CCCC[C@H]2C(=O)O[C@H]([C@H](C)C[C@@H]2CC[C@@H](OC(=O)NCCOCCOCCOCCOCCOCCOCCOCCOCCC(=O)N3CCc4cc(Cn5nc(-c6ccc7oc(N)nc7c6)c6c(N)ncnc65)ccc4C3)[C@H](OC)C2)C[C@@H](O)[C@H](C)/C=C(\C)[C@@H](O)[C@@H](OC)C(=O)[C@H](C)C[C@H](C)/C=C/C=C/C=C/1C  headache incidence (patients with advanced solid tumours; intravenous, 10 mg weekly, any grade): 12.5%

A few entries again:
Cc1cn(-c2cc(NC(=O)c3ccc(C)c(Nc4nccc(-c5cccnc5)n4)c3)cc(C(F)(F)F)c2)cn1  ADAS-Cog change difference (human; dose not given, between 12 and 6 months, unit not given; reference: placebo): 0.67
CCCCC/C=C\C/C=C\C/C=C\Cc1ccccc1CCCC(=O)N[C@H](C)CO  paw withdrawal threshold (mechanical hypersensitivity, electronic von Frey; mouse, CFA inflammatory pain model, contralateral non-inflamed paw; ip, 10 mg/kg; reference: vehicle): no effect
CCN(CC)CCOCCOC(=O)C1(c2ccccc2)CCCC1  IC50 (Plasmodium falciparum; W2): 631 nM
